Measured values of several laboratories.
Parts stem from different laboratories: compare values within a part only.

Set 1 — method: competition protein-binding microarray; form: double-stranded DNA, one strand shown; matrix: in vitro; tested at: 2 µM; together with: Cbf1 competitor, 0.05 µM; reading: higher = stronger binding; all sequences stand within: … GTCTTGATTCGCTTGACGCTGCTG
Target: Phosphate system positive regulatory protein PHO4, full length, GST-tagged (PHO4, Saccharomyces cerevisiae, UniProt P07270, residues 1-312)
Setting: whole 60-bp probe, lowest competitor level
Target sequence (chain): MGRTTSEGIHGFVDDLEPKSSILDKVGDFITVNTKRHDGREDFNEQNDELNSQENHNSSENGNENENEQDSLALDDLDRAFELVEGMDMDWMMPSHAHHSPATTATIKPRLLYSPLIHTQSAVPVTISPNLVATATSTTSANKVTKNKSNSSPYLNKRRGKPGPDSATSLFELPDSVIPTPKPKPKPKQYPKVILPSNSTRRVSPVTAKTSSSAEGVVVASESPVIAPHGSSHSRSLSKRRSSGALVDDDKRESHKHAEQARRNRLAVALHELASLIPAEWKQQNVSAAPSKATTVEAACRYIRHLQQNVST
| Strand | fluorescence intensity [a.u.] |
| --- | --- |
| CGCTTTCCTATTGCGCGCATGACAAGGATGGAAAAA | 5810 |
| GCCCTGTCCAGGATTGGCGTGGGACCGCTGGCCGCA | 3830 |
| GCTGAAAAGCGCGTTCTCGTGCGATGCTTTCAGTGT | 8270 |
| CATACCCAACCTTTTCACGTGACTTAAGATATTTGT | 12500 |
| TTTTACGTTTGAGGCCTCGTGGCCGAAATGGTACGC | 10800 |
| AAAGCGGTAATTTGCGTTGTGGGTGCAGATATCTAT | 4560 |
| GGTACGGCAACTCAATCCGTGCCAGCTTCGGAAGCC | 4560 |
| GCCCATTCTGTGGTGAATGTGACGGAGCAGTTTGAG | 5130 |
| CTAACGAAGGTTTGATTTGTGGGTGACAAGCCAAGT | 3230 |
| TGCGCAACAACTTGAAGGGTGGGTGTATGTCTAGAA | 4970 |
| ATGGGCAAGCGCATCCATGTGGCGTTTCCTACTTTT | 9550 |
| CGTCCTAGTGATTTTCACGTGGGCTCCATGAGGAAG | 13900 |
| CTTTCCCGATCTTGCGTCGTGGGTGTAGCACATTTG | 8020 |
| TCCCTTCAAACTCACCACGTGATGGTCTAGACGTTG | 15200 |
| TCAACTGGTCTAGCCCATGTGTCTTTAGTTTCCAAG | 9410 |
| TTATTCCCGTATCCACACGTGGCCGAAGAATATATA | 18100 |
| CTAACGAAGGTTTGGTAGGTGGGTGACAAGCCAAGT | 3830 |
| CGCTCGCCTCATACCCACGGGAATAAGGCAGCCGAC | 6510 |
| AATTGGCGTAATCCAGCCGTGATGGCGATGACCAGG | 3350 |
| TTAACGGGAAGGCGCGTCGTGATGGTCTCGCGCTTT | 5280 |

Set 2 — method: protein binding microarray; form: double-stranded DNA, one strand shown; matrix: in vitro; tested at: not given; reference: not given; reading: higher = stronger binding
Target: Histone acetyltransferase KAT6A, winged helix 2, GST fusion (KAT6A, Homo sapiens, UniProt Q92794, residues 85-181)
Setting: 8-mer, flanks averaged, mean of 2 arrays, mostly near background
Target sequence (chain): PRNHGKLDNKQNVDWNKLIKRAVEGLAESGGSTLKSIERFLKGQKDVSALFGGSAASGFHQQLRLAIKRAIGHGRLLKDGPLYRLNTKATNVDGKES
| Strand | E-score |
| --- | --- |
| AATTAGCA | 0.186 |
| ATACAGTG | -0.14 |
| CGCCGATC | 0.11 |
| AATTGTCA | 0.123 |
| GACAAACA | -0.171 |
| ACGAAGAT | 0.0827 |
| ACTGCTTA | -0.0118 |
| AGAAATTC | 0.0763 |
| CAAATCGG | 0.0898 |
| CCGCCTAA | 0.145 |
| TCCACAAA | 0.212 |
| CCGCTAAA | -0.0647 |
| AGTATAAA | 0.195 |
| ATGCCACA | -0.0186 |
| ACTATGCG | -0.0564 |
| ATCCGGTA | -0.021 |
| TGGGCGAA | 0.202 |
| ATGGTAGA | -0.179 |
| AACATCCG | 0.0783 |
| AGCGAATA | 0.00131 |
| TCGAGGAA | -0.0706 |

Set 3 — method: RNAcompete; form: RNA; matrix: in vitro; tested at: 20 nM; setting: 7-mer, probes averaged, single round; reference: mean of 7-mers; reading: higher = stronger binding
Target: PABPC1L2, full length, GST fusion (mouse, UniProt A0ABA7IW68)
Construct (chain): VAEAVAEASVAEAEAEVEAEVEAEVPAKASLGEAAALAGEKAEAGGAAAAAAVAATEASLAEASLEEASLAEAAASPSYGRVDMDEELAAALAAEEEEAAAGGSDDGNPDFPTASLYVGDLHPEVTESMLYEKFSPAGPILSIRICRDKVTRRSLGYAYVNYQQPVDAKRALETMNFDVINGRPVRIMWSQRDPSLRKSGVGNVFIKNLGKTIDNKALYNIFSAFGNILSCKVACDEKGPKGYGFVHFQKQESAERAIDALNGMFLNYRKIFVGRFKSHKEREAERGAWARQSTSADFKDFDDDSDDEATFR
| Strand | 7-mer Z-score |
| --- | --- |
| AUGCCAA | 0.0787 |
| ACAACAA | 0.669 |
| GCACACU | -0.146 |
| ACUUUAA | 0.0841 |
| CCAUAUG | -0.213 |
| CUUAGCC | -0.374 |
| CAAGGCG | 0.202 |
| CGCGCCA | -0.286 |
| AUCCUCA | -0.306 |
| AGCUAAU | -0.148 |
| UUCCUCU | -0.394 |
| GACUUAU | -0.139 |
| AAGUUAA | 0.119 |
| CUAGGGC | -0.00289 |
| GACCAUA | -0.148 |
| CCAGGCC | -0.142 |
| AUGUAAU | -0.0246 |
| UCAUUAC | -0.242 |
| UGAUCGC | -0.255 |
| CUCGAUU | -0.307 |
| ACCAUCC | -0.226 |
| UCUAUGG | -0.148 |
| UGCACUC | -0.338 |
| CCUGAUG | -0.19 |
| ACCUUUU | -0.144 |

Set 4 — method: RNA Bind-n-Seq; form: RNA; matrix: in vitro; tested at: 365 nM; reference: no-protein control; reading: higher = stronger binding
Target: RNA binding protein fox-1 homolog 2, RRM domain, GST-SBP tag (RBFOX2, Homo sapiens, UniProt O43251-10, residues 100-194)
Setting: natural RNA segment, single round, ends assumed
All sequences stand within: GGGAGUUCUACAGUCCGACGAUC … UGGAAUUCUCGGGUGCCAA
Target sequence (chain): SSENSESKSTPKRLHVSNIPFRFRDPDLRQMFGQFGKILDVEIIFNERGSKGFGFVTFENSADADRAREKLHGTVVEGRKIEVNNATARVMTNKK
| Strand | RBNS enrichment (R) |
| --- | --- |
| AUUGAGUCCCCACGGCAUCUCUGGGAGGCAGGUGGUGAGCUCUUCACACAUCUUGAGCGAGAAGGCAUCUUCCUGGAAGACACAGCCUGCUUCUACCUGGCAGAGAUCAC | 0.307 |
| GCCUGGGUGUCCUCACAGUUCUAUAACAAGUGACUUGCUCCUUAGGGGAUGUUUGCCUUUAAGGUUUUAUACUUUGUUUGGUUUGGAAAGAUGCUUUAAAUUAAAUUUGG | 0.395 |
| UGACAUUUAAUAAUGACUUAGCAAGCAUUGGAUUUUUUUUUUUUGUUGUUCUUGUUAGCUAAAGCACUUUUAGUUUUAUCCUUCCCUAGUAGGUUAUUGUAUCAGACUAG | 0.922 |
| GCUUCCUUGUUUAUGAAGUGAGGUGGUUUCUAGUGCUUUUCCAGGUUCUGCCUUAGUUAAAAACUAAGGCAGGUAAACAGAGAUGAAUCCUUGUGAAAAGCAUCUAAGGG | 0.236 |
| AUAAUGACAUUCUGUCACCCACCCUUUUGUACAUUUUUCACUUUUUGUUUGUUUCAUCUUUUUCAGUUGAAUAUUAAUACUAAUGGCCACGUCUGACAAAUGUGUGUAUG | 0.588 |
| CCUCCGUUGUAAUUAAUGAAACUAUUUUCUUUAAAGUGUUUCUAUGUUAAAAUAGCAUACUGUGUAUGUUUUAUCCAAAUUCAUUCAUGAAUCUUUCAUAUAUAUAUGCA | 0.614 |
| GCUGCCCAUGCAGCAGAGGGCAGAAGGCUUGCACUUGGGCCAAAGGGCCUAAGGUCCACUGGACAGUUGGGAAAACACCUGACCACCAUUUAAGGACUCUAAGCCAGAAU | 0.356 |
| UAACAGUUCCUAAAUUCUAAGGUCCUUGAAUUUGAAGGAAAGACCUUUAGGCCAACUCUGUCUUGGCUGAUAACUCUUACAAUGCACGUUACUAACUUGGUGUCGCUACC | 28.1 |
| ACCUUGUGCAACGUUCCCCAACACUUCCACAUACAGAAAUUAUUUUCACUCUAUCCCUGCUUCAGUUUUUGCAGAUUAACAGUUCUAUUAGUGAUUUGGAAAGUUAACAG | 0.359 |
| CAAAAGCUGCUGUCACAAUUUCAUUCCGAGGCCAUCUUGCCCCUCCCCCUUCACUCUGCCUUCCUGAGUUGGCCCCACUCUGCACGGGAGGGAGGGCCCACCUUAGACUG | 1.31 |
| UGUACUGCCUGAGUUGUGCCUCUUGUGUGCUAGAUUAAAAGUGAGACAGAGACUUGACUUGAUCCUCUGAGCUCAAGCUAUUGAGCUGGUAGUGGCAGAGGACUGAGGGU | 0.397 |
| GAACUGCUCAACACACAGAUCUCCUACUCCAUCCAGUCCUGAGGAGCCUUAGGAUGCAGCAUGCCUUCAGGAGACACUGCUGGACCUCAGCAUUCCCUUGAUAUCAGUCC | 5.29 |

Set 5 — method: RNA Bind-n-Seq; form: RNA; matrix: in vitro; tested at: 1 µM; setting: whole 134-nt RNA, ends assumed; together with: 150 mM KCl; reference: input library; reading: higher = stronger binding
Target: Ras GTPase-activating protein-binding protein 1, C-terminal RGG region (G3BP1, Homo sapiens, UniProt Q13283)
UniProt Q13283, sequence (whole entry, looked up): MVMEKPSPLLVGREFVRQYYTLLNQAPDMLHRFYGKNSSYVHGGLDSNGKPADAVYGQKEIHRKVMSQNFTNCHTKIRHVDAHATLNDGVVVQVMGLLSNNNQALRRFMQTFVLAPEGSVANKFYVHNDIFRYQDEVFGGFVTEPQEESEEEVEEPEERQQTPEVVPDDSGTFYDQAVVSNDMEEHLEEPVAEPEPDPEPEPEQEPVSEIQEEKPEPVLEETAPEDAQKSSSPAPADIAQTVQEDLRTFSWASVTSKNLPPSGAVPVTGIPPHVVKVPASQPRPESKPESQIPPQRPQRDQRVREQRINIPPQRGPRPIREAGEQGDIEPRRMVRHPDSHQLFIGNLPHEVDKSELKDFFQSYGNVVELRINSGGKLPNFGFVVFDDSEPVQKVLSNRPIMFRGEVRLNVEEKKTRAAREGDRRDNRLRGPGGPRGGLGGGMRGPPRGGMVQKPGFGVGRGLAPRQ
All sequences stand within: GGGAGUUCUACAGUCCGACGAUC … UGGAAUUCUCGGGUGUCAAGG
| Strand | log2 enrichment |
| --- | --- |
| UGGCACUGGUGGCAUGCGGGGAGGAAGAGGUGGCCUCAUGGAUCGUGGUGGUCCCGGUGGAAUGUUCAGAGGUGGCCGUGGUGGAGACAG | 1.67 |
| GUCCUGUGCUACACAUCGUAUGUACCGAAUCGGGGUUUUUGGGGUUUGGGGAAAGGGGAAAGUAUUAUGUUACGCCGUUCGGAUCUGCAC | 3.63 |
| GUCCUGUGCUACACAUCGUAUGUACCGAAUCGGAAAAAGGGGAAAAAGGGGAAAAAGGAAAGUAUUAUGUUACGCCGUUCGGAUCUGCAC | -1.02 |
| GCAGGAAGUAAAAACAAAUGGAAAUGCUUCGGAUAGUGGCAGGGGUCGGGGUUGCUAAGGAAAGGGUGGGAUGGGAGUGGGUAAAGAGUU | 0.803 |
| AGUCCUGUGCUACACAUCGUAUGUACCGAAUCGGGGUUUGGGGAAAGGGGUUUGGGGAAAGUAUUAUGUUACGCCGUUCGGAUCUGCACU | 3.32 |
| ACCAUGCAGGUGGGCAUCUUUGGGAAGUGGGGCAAGGGGGGGAUAGGGAGGGGGGUAACACUUUGGGAACAGGUGCUCCCAGGUCGUUUC | 1.57 |
| CCUGUGCUACACAUCGUAUGUACCGAAUCAAACCCCCCCAAAUUUUUUUAAACCCCCAAAAAAGUAUUAUGUUACGCCGUUCGGAUCUGC | -0.982 |
| CAAGUCCUGUGCUACACAUCGUAUGUACCGAAUCGGGUUUGGGAGGGUUUUUGGGAAAGUAUUAUGUUACGCCGUUCGGAUCUGCACUUC | 1.8 |
| CACUGACAACACGCACCCACACAGACACAGAGGGAAGGGGUUGGGAUGGGGACAGGGUGCACAGCAGGGCGGGGUAGGACCCCAGCCCCU | 0.271 |
| CCUGUGCUACACAUCGUAUGUACCGAAUCGGGCCCCCCGGGGCCCCCCGGCCCCCCGGGGAAAGUAUUAUGUUACGCCGUUCGGAUCUGC | -2.06 |
| GUCCUGUGCUACACAUCGUAUGUACCGAAUCAAAUUUAAAUUUUUUUAAACCCCCAAAAAAGUAUUAUGUUACGCCGUUCGGAUCUGCAC | -0.757 |
| UGGCCCUGGUGGCAUGCGGGGAGGGAGAGGUGGCCUCAUGGAUCGUGGUGGUCCCGGUGGAAUGUUCAGAGGUGGCCGUGGUGGAGACAG | 2.39 |
| CUCAAGUCCUGUGCUACACAUCGUAUGUACCGAAUCGGGGAGGGAGGGGAGGGAAAGUAUUAUGUUACGCCGUUCGGAUCUGCACUUCCA | 2.32 |
| ACCAUGCAGGUGGGCAUAAAUGGGAAGUGGGGCAAGGGGGGGAUAGGGAGGGGGGUAACACUUUGGGAACAGGUGGUCCCAGGUCGUUUC | -1.07 |

Repeated from above (set 2):
| Strand | E-score |
| --- | --- |
| AATTGTCA | 0.123 |
| TGGGCGAA | 0.202 |
| AGTATAAA | 0.195 |
| AGCGAATA | 0.00131 |
| GACAAACA | -0.171 |
| AGAAATTC | 0.0763 |
| CCGCCTAA | 0.145 |
| ATCCGGTA | -0.021 |
